# Experimental data from different studies.
# Each numbered part is a random draw from the data of one study; scales do not carry over between parts. Several values in a cell are separate wells, animals, samples, runs or records.
# Chain of UniProt P07949 (whole entry, looked up): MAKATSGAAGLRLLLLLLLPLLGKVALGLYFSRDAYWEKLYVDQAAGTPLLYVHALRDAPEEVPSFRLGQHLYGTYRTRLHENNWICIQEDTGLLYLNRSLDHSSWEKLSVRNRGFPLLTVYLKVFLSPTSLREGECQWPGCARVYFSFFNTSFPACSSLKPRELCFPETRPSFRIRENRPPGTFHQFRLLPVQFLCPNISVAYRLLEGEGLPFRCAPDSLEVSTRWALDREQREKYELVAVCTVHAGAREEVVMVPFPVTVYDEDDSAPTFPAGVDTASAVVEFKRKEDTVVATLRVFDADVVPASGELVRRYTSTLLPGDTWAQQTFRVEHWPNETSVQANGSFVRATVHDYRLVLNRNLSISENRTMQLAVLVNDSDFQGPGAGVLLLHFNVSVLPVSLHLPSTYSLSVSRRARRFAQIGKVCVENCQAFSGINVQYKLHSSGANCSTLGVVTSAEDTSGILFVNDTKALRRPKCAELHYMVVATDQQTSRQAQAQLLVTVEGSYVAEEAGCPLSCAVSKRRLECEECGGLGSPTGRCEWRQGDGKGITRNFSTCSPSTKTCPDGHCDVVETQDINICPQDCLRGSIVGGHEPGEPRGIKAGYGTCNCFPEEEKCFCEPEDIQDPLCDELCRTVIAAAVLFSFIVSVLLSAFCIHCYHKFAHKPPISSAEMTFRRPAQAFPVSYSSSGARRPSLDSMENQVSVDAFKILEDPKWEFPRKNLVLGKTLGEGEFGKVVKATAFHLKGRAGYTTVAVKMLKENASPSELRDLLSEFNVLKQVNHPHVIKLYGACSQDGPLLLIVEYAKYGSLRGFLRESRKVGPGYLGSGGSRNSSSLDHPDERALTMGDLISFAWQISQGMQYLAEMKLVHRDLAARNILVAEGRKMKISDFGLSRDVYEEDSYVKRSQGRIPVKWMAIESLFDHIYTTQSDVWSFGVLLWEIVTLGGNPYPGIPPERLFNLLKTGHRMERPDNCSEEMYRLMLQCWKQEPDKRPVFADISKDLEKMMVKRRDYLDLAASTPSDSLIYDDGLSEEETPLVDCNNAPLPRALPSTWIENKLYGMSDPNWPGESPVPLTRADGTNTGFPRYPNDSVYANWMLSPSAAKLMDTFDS
# Chain of UniProt Q52WX2 (whole entry, looked up): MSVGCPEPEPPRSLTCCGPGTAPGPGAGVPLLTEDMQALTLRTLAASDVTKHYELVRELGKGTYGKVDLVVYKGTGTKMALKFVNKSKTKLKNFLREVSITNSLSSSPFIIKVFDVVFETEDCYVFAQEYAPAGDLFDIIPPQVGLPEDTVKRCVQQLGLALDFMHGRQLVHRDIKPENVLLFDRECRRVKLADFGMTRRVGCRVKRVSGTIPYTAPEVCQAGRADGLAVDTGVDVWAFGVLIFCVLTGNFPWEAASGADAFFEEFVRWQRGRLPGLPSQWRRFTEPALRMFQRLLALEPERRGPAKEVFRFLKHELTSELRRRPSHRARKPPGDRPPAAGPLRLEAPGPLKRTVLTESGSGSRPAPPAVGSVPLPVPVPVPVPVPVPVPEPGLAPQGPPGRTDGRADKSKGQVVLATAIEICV
# Chain of UniProt Q6P2M8 (whole entry, looked up): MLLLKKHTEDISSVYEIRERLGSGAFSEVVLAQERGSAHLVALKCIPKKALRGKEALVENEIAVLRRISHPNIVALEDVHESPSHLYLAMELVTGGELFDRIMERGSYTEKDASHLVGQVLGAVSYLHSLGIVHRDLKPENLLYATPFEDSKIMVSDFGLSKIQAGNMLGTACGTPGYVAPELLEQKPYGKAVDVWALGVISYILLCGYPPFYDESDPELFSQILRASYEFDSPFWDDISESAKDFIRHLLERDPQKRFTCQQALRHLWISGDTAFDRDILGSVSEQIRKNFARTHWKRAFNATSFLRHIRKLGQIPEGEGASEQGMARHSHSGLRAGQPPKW
# Chain of UniProt Q99759 (whole entry, looked up): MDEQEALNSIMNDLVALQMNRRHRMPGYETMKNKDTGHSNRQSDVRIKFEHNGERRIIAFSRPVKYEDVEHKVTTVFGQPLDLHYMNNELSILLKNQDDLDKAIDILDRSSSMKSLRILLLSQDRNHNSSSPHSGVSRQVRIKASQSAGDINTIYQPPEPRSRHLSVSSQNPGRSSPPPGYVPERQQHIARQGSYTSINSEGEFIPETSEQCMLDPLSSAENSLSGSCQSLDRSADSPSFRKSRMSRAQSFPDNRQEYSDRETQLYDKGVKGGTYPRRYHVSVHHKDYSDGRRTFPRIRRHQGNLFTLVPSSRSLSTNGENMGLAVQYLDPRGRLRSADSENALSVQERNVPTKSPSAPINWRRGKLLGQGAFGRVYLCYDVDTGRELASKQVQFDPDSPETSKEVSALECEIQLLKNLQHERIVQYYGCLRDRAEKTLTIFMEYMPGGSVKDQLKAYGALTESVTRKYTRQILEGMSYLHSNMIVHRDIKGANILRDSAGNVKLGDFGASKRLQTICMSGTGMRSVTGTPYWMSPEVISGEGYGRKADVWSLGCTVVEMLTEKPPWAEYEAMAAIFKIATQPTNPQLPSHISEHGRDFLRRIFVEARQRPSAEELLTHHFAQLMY

# Sample 1 — observed: binding; action: competitor; method: NanoBRET; cells: HEK293
# Structure (SMILES): CN1CCC[C@H]1COc1nc2c(c(N3CCN(S(C)(=O)=O)[C@@H](CC#N)C3)n1)CCN(c1cccc3cccc(Cl)c13)C2
# KRAS Q61H: GTPase KRas (KRAS, Homo sapiens, UniProt P01116, Q61H)
target,concentration,normalized BRET
"GTPase KRas (KRAS, Homo sapiens, UniProt P01116, G13D)",33.3 µM,3.38% and 3.98% and 4.7%
"GTPase KRas (KRAS, Homo sapiens, UniProt P01116, G12D)",5.08 nM,98.8% and 96.2% and 107%
KRAS Q61H,5.08 nM,87.2% and 107% and 99.2%
KRAS Q61H,137 nM,86.2% and 87.7% and 80.3%

# Sample 2 — observed: enzyme activity; action: inhibitor; concentration: 77 µM; reference: untreated
# Target: DNA polymerase theta, ATPase domain (POLQ, Homo sapiens, UniProt O75417)
# Chain of UniProt O75417 (whole entry, unmodified, looked up): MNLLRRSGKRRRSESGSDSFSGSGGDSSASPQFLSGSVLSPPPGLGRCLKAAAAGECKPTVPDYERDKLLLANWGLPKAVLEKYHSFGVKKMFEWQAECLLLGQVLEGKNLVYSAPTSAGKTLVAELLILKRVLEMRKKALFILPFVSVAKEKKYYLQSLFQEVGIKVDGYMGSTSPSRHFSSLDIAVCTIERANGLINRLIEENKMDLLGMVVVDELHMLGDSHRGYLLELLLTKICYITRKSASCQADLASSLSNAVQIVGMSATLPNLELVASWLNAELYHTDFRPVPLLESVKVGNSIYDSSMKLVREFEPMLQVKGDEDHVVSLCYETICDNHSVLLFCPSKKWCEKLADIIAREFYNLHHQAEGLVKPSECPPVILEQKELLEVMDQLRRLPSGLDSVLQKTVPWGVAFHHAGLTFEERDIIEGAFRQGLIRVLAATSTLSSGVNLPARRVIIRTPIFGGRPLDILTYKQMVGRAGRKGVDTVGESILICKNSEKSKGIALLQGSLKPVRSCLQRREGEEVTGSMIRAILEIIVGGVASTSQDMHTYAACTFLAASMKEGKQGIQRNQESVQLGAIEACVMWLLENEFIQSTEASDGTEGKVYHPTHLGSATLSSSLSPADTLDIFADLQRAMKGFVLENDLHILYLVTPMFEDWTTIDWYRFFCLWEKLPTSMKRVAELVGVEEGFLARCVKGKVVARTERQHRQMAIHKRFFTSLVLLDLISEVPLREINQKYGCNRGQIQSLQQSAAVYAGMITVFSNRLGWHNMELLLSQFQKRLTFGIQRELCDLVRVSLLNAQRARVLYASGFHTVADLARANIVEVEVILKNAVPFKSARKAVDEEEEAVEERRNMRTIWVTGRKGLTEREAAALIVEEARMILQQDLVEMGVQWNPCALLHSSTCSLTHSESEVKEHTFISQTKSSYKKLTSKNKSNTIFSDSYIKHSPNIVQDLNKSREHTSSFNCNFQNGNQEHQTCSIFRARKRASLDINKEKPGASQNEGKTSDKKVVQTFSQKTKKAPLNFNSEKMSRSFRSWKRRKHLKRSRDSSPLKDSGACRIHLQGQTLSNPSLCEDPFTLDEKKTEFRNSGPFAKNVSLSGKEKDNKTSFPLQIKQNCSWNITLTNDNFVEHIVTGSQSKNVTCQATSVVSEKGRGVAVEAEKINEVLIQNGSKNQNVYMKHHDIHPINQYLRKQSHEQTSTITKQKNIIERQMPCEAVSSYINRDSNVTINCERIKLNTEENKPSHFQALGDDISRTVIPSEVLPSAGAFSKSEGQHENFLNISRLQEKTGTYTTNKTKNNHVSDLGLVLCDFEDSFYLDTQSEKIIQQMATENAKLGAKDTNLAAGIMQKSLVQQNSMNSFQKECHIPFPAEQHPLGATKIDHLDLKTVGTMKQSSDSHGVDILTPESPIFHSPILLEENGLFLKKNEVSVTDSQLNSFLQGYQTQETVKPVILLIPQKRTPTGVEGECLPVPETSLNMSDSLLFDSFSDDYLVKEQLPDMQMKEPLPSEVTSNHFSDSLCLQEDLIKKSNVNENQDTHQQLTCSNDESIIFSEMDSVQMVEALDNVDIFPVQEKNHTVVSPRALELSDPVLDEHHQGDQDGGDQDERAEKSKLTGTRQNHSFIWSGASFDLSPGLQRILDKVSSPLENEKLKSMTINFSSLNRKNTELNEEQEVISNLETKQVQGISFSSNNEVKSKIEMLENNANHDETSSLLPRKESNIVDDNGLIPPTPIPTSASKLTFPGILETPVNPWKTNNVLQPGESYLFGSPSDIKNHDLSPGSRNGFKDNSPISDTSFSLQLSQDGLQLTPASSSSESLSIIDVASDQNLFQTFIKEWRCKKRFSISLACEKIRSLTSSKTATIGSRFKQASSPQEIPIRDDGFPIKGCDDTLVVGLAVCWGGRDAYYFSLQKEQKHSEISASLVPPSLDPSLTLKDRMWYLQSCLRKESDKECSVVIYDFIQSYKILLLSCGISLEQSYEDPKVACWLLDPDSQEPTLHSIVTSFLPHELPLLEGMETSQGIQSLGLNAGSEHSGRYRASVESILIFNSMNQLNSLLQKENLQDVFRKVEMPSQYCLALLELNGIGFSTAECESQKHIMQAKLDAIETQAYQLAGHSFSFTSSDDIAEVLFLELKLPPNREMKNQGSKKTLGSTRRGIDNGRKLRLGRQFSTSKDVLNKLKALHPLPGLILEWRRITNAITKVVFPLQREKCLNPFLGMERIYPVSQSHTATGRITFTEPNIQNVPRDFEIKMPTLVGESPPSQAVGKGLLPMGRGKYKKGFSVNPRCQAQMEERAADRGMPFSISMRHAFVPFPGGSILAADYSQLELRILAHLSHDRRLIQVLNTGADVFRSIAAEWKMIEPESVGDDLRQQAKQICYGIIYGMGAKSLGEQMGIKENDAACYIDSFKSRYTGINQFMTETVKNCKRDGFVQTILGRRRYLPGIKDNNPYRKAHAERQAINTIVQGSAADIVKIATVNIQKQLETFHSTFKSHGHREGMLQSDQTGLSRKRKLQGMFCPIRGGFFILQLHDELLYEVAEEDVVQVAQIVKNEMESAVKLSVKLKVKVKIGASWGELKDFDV
Structure (SMILES),remaining activity
COc1cc(NC(=O)c2ccccn2)ccc1Cl,101%
Cn1cnc2c(NCc3ccccc3)nc(NCCO)nc21,101%
Cn1ccnc1S,98.3% and 100%
N#C/C(=C\c1ccc(O)c(O)c1)C(=O)NCc1ccccc1,97.1%
CC(C)(C=O)Cc1cc(C(C)(C)C)c(O)c(C(C)(C)C)c1,110%

# Sample 3 — observed: cell-free assay; method: competition with immobilised ligand; concentration: 1 µM
# SMILES: CN(C)c1ncnc(-c2ccc3nc(Nc4cc(CN5CCN(C(=O)CC(F)(F)F)CC5)ccn4)[nH]c3c2)c1Cl
target,remaining binding
"SBK1 (Homo sapiens, UniProt Q52WX2)",71%
"MAP3K3 (Homo sapiens, UniProt Q99759)",50%
"MAP3K15 (Homo sapiens, UniProt Q6ZN16)",75%
"MAP3K4 (Homo sapiens, UniProt Q9Y6R4)",100%

# Sample 4 — observed: binding; concentration: 1 µM
# SMILES: CN1CCN(C(=O)c2ccc(NC(=O)Nc3ccc(N(C)c4ccnc(Nc5ccc(CS(C)(=O)=O)cc5)n4)cc3)cc2)CC1
target,method,remaining binding [%]
"RET (Homo sapiens, UniProt P07949)",competition with immobilised ligand,0
"PIK3CA (Homo sapiens, UniProt P42336, Q546K)",,100
"CSNK1A1L (Homo sapiens, UniProt Q8N752)",,100
"TLK2 (Homo sapiens, UniProt Q86UE8)",,100
"STK11 (Homo sapiens, UniProt Q15831)",competition with immobilised ligand,76

# Sample 5 — SMILES: O=C(CCCc1ccc(-c2ccccc2F)cc1)Nc1ccc(O)cc1; observed: enzyme activity; action: inhibitor; concentration: 0.5 µM; reference: control
target,remaining activity [%]
"Cyclin-dependent kinase 1, with cyclin A (CDK1, Homo sapiens, UniProt P06493)",93.7
"MARK4 (Homo sapiens, UniProt Q96L34)",124
"MAPK11 (Homo sapiens, UniProt Q15759)",79.7
"CDC42BPB (Homo sapiens, UniProt Q9Y5S2)",109
"MAPK14 (Homo sapiens, UniProt Q16539)",89
"MET (Homo sapiens, UniProt P08581)",114
"CAMK4 (Homo sapiens, UniProt Q16566)",99.6
"NEK3 (Homo sapiens, UniProt P51956)",109
"MAPK1 (Homo sapiens, UniProt P28482)",69.9
"GRK4 (Homo sapiens, UniProt P32298)",96.8
"DDR2 (Homo sapiens, UniProt Q16832)",98.1
"MINK1 (Homo sapiens, UniProt Q8N4C8)",97.3
"PNCK (Homo sapiens, UniProt Q6P2M8)",102
"KDR (Homo sapiens, UniProt P35968)",101

# Repeated from above (sample 5):
target,remaining activity [%]
"GRK4 (Homo sapiens, UniProt P32298)",96.8
"DDR2 (Homo sapiens, UniProt Q16832)",98.1
"MINK1 (Homo sapiens, UniProt Q8N4C8)",97.3
